Measured values pooled from the literature.
Compare with care: the assays were run in different laboratories. Values joined by “and” are separate records of one study, mostly repeats; a detail may differ. Numbers after ± are the reported error.

`O=C(NS(=O)(=O)c1cccs1)c1cc2ccccc2n1Cc1ccc(Br)c2ccccc12` has a body weight of 31.4 g and 30.4 g and 30.8 g and 26.8 g and 33.6 g and 30.6 g (KM mouse, chronic hyperuricaemia model; dose not given, day 11).
For `C=CC(=O)Nc1cc(Nc2nccc(-c3c[nH]c4ccccc34)n2)c(OC)cc1N(C)CCN(C)C`, the recovery was 71.2% (storage stability; human dried blood spot; 10 d, on ice, HQC level).
With `[123I]c1ccc2nc(-c3ccc(-n4ccnn4)nc3)cn2c1` the tracer uptake was 0.099 %ID/g (male Wistar rat, pancreas; intravenous, 4 MBq, 1 h).
`Cc1cc(-c2ccc(C(=O)[C@@H]3CCCC[C@H]3C(=O)Nc3cnn4c3C(=O)NCC4)cc2)[nH]n1` — result for “cumulative recovery of radioactivity”: 85.4% and 82.1% and 74.4% and 76.8% and 75.8% and 81.3% (human, faeces; oral, 200 mg; reference: dose).
With `CC(C)[C@H](NC(=O)[C@H](Cc1c[nH]c2ccccc12)NC(=O)[C@H](CCCNC(=N)N)NC(=O)[C@H](CCCNC(=N)N)NC(=O)[C@@H](NC(=O)[C@@H](NC(=O)[C@H](CCCNC(=N)N)NC(=O)[C@@H](NC(=O)[C@@H](NC(=O)[C@H](CCCNC(=N)N)NC(=O)[C@H](CCCNC(=N)N)NC(=O)[C@@H](NC(=O)[C@H](Cc1c[nH]c2ccccc12)NC(=O)[C@H](CCCNC(=N)N)NC(=O)[C@H](CCCNC(=N)N)NC(=O)[C@@H](NC(=O)[C@H](CCCNC(=N)N)NC(=O)[C@H](CCCNC(=N)N)NC(=O)[C@@H](NC(=O)[C@H](Cc1c[nH]c2ccccc12)NC(=O)[C@H](CCCNC(=N)N)NC(=O)[C@@H](N)CCCNC(=N)N)C(C)C)C(C)C)C(C)C)C(C)C)C(C)C)C(C)C)C(C)C)C(=O)N[C@@H](CCCNC(=N)N)C(=O)N[C@@H](CCCNC(=N)N)C(=O)O` the urine pH was 6 (dipstick; CD1 mouse, urine; intravenous, 15 mg/kg, 16 h, [14C]-labelled compound).
`CC(C)OCCOCc1ccc(OCC(O)CN(N=O)C(C)C)cc1` (stereo not shown) has a fold change of 2.4 (duplex sequencing, item: mutation frequency; NMRI mouse, bone marrow; oral, 845 mg/kg/day, 4 weeks; reference: vehicle).
The tumour-to-tissue ratio of `Cc1cc(C)n(CCN(CCN)CCCCCCNC(=O)[C@@H](N)Cc2c[nH]cn2)n1.[99Tc+].[C-]#[O+].[C-]#[O+].[C-]#[O+]` is reported as 3.8 (BALB/c nude mice A549 xenograft; intravenous, 15 min; reference: tumour over muscle).
The tumour uptake of `C[N+](C)(CCOCCOCCOCCOCCOCCOCCOCCNC(=S)Nc1ccc(CC2CN(CC(=O)[O-])CCN(CC(=O)[O-])CCN2CC(=O)[O-])cc1)C[c-]1cccc1.[64Cu+2].[Fe+2].c1cc[cH-]c1` (stereo not shown) is reported as 1.1 ± 0.3 %ID/g (pretargeted biodistribution; nude mouse, BxPC-3 xenograft; 8 h post-radioligand, 72 h lag time).
`CC(C)(F)CC(NC(c1ccc(-c2ccc(S(C)(=O)=O)cc2)cc1)C(F)(F)F)C(=O)NCC#CBr` (stereo not shown): “cysteine adduct formation” 55% (PBS; 100 µM, 23 h, pH 7.45, 37 °C, with: cysteine 10 mM).
Under “Tmax at second steady-state dose”, `CN1CCC[C@]1(C)/C=C/S(=O)(=O)NC(=O)Nc1c2c(cc3c1CCC3O)CCC2` (stereo partly shown) is recorded as 3.5 h (human, plasma; oral, 50 mg twice daily of parent drug, day 14, metabolite of dosed drug).
The MRT(0-inf) observed of `Cc1nn(-c2nc3c(F)cc(F)cc3s2)c(O)c1C(c1ccc(C(F)(F)F)cc1)c1c(C)nn(-c2nc3c(F)cc(F)cc3s2)c1O` is reported as 8.16 h and 5.44 h and 18.5 h (ICR mouse, plasma; intravenous, 5 mg/kg).
`[18F]CCn1cc(COc2ccc(-c3nncnn3)cc2)nn1` has a tumour uptake of 2.7 ± 0.4 %ID/g (LS174T xenograft, BALB/c nude mouse, tumour; intravenous, 1 h, with: CC49-TCO 72 h before).
With `O=C(OC(C(F)(F)F)C(F)(F)F)N1CCC(CNS(=O)(=O)c2ccc(Cl)cc2)CC1` the Tlast was 24 h (CB17 SCID mice, male, plasma; oral, 30 mg/kg).
The tumour-to-heart ratio of `COc1cccc(OC)c1-c1cc(C(=O)NC2(C(=O)O)C3CC4CC(C3)CC2C4)nn1-c1ccc(C(=O)N(C)CCOCCN(C)C(=O)[C@H](CCCCNC(=O)[C@H](CC(C)C)NC(=O)C2OC2C(=O)O)NC(=O)CN2CCN(CC(=O)[O-])CCN(CC(=O)[O-])CCN(CC(=O)[O-])CC2)cc1C(C)C.[177Lu+3]` (mixture of isomers) is reported as 17.9 (mouse, HT-29 xenograft; 72 h post injection, biodistribution; reference: tumour over heart uptake).
Under “Cmax, geometric mean”, `CC1(F)C(O)C(CO)OC1n1cnc2c(=O)[nH]c(N)nc21` (stereo not shown) is recorded as 228 ng/mL (healthy adult humans, plasma; oral, 550 mg once daily, day 6, fasted, given alone).
For `COCC1CN(C2CCN(c3cc(OC)c(Nc4ncc(Br)c(Nc5ccc6c(c5P(C)(C)=O)OCCO6)n4)cc3C)CC2)C1`, “serious adverse events” read 0% (first-in-human trial; human; oral, 60 mg once daily; treatment-related).
For `CN(O)C(=O)CCC(=O)NCCCN(CCCCN(CCCNC(=O)CCC(=O)N(C)O)C(=O)CCC(=O)N(C)O)C(=O)CCC(=O)N(C)O.[89Zr]`, the intact complex was 99 ± 0.7% (radio-TLC; aqueous buffer; 7 d, pH 7.2, 37 °C, 89Zr-labelled complex, with: CoCl2 10-fold excess).
With `COc1ccnc(C(=O)N[C@H]2COC(=O)[C@H](Cc3ccccc3)[C@@H](OC(=O)C(C)C)[C@H](C)OC2=O)c1O` the DT50 was 2.37 days (water/sediment; 20 °C, whole system, longest, aerobic dark).
With `CCc1cnc(NC(=O)c2cc(S(=O)(=O)N3CCOCC3)ccc2N(C)C2CCCC2)s1` the BUN was 20 mg/dL (mouse, serum; 10 mg/kg, 3 doses).
With `COc1ccc2c(c1)CCn1c[n+]3c(c1-2)-c1ccc(OC)cc1CC3` the Neutrophils was 67.7 ± 25.4% (female NSG mice, blood; 6 mg/kg, day 14, 5 days per week).
`C=C(NC(=O)c1csc(-c2nc3c(cc2O)-c2nc(cs2)C(=O)NC(C(C)O)C(=O)NC(=C(C)OC)c2nc(cs2)C(=O)NC2c4nc(cs4)C(=O)NC(COC(=O)c4c5c6c(cccc6n4O)COC(=O)C(OC4CC(C)(O)C(N(C)C)C(C)O4)C2OC5)c2nc-3cs2)n1)C(N)=O` (stereo not shown) gave a Vz/F of 31.1 L/kg (Sprague-Dawley rat, male, plasma; intravenous infusion, 6 mg/kg, multiple doses, day 1).
Under “short-term stability accuracy”, `CCn1c(=O)c(-c2cc(NC(=O)Nc3ccccc3)c(F)cc2Br)cc2cnc(N)cc21` is recorded as 0.58% (human plasma; 150 ng/mL, 24 h, 24 °C, low QC).
With `Cc1cc(NC(=O)[C@H](O)c2cc(F)cc(F)c2)ccc1-c1cnc(N)c(C(=O)NC(C)C)c1` the dose-normalised Cmax was 171 ng·kg/mL/mg (athymic nude Foxn1nu mouse, female, plasma; oral, 10 mg/kg).
Under “fluorescence quantum yield”, `CCCCN1C(=O)c2cccc3c(NCCN4CCOCC4)ccc(c23)C1=O` is recorded as 0.08 (methanol).
With `O=C(Nc1cnccc1-c1ccc([18F])cc1)c1ccnc(NC(=O)C2CC2)c1` the SUV was 0.18 (FVB/NJ mice (both sexes), lung; intravenous, dose not given, 120 min).
For `CCCC[C@H](NC(=O)CNC(=O)CNC(=O)[C@H](CCCCNC(=O)[C@H](CCN)NC(=O)C(C)c1ccc(CC(C)C)cc1)NC(=O)CN1CCN(CC(=O)O)CCN(CC(=O)O)CCN(CC(=O)O)CC1)C(=O)N[C@H]1CC(=O)NCCCC[C@@H](C(N)=O)NC(=O)[C@H](Cc2c[nH]c3ccccc23)NC(=O)[C@H](CCCNC(=N)N)NC(=O)[C@@H](Cc2ccccc2)NC(=O)[C@H](Cc2c[nH]cn2)NC1=O` (stereo partly shown) [lutetium-177 labelled], the tumour-to-tissue ratio was 119 (C57 mice, tumour; 2 h; reference: blood).
Under “serious adverse events”, `CC[C@H](C)[C@@H]1NC(=O)[C@H](Cc2ccc(O)cc2)NC(=O)CCCSC[C@@H](C(=O)N(CC(=O)N[C@@H](CC(C)C)C(=O)NCC(N)=O)Cc2ccc(F)cc2)NC(=O)[C@H](CC(N)=O)NC(=O)[C@H](CCC(N)=O)NC1=O` is recorded as 0% (human; intranasal and intravenous, 400 µg intranasal and 20 µg intravenous).
For `O=C([O-])CN1CCN(CC(=O)[O-])CCN(CC(CCCc2ccccc2[N+](=O)[O-])N(CC(=O)[O-])CC(=O)[O-])CC1.[177Lu+3]` (stereo not shown), “intact radiolabelled complex” read 99.8 ± 0.3% (TLC; human serum; 327 h, pH 7, 37 °C).

A few entries again:
With `Cc1cc(NC(=O)[C@H](O)c2cc(F)cc(F)c2)ccc1-c1cnc(N)c(C(=O)NC(C)C)c1` the dose-normalised Cmax was 171 ng·kg/mL/mg (athymic nude Foxn1nu mouse, female, plasma; oral, 10 mg/kg).
Under “fluorescence quantum yield”, `CCCCN1C(=O)c2cccc3c(NCCN4CCOCC4)ccc(c23)C1=O` is recorded as 0.08 (methanol).
With `O=C(Nc1cnccc1-c1ccc([18F])cc1)c1ccnc(NC(=O)C2CC2)c1` the SUV was 0.18 (FVB/NJ mice (both sexes), lung; intravenous, dose not given, 120 min).
